Experimental data gathered from unrelated publications.
Organism: Staphylococcus aureus

Compound	assay	test system	conditions	MIC
O=[N+]([O-])c1ccc2[nH]c(CNCC34CC5CC(CC(C5)C3)C4)nc2c1		ATCC 29213		> 128 µg/mL
C=CC1(C)CC(OC(=O)CSc2ccc(N)cc2)C2(C)C(C)CCC3(CCC(=O)C32)C(C)C1O (stereo not drawn)				≤ 0.06 µg/mL
CC1(C)S[C@@H]2[C@H](NC(=O)[C@H](N)c3ccccc3)C(=O)N2[C@H]1C(=O)O		ATCC 29213	16 h	2 µg/mL
CC1(C)S[C@@H]2[C@H](NC(=O)[C@H](N)c3ccc(O)cc3)C(=O)N2[C@H]1C(=O)O	broth microdilution	BNCC 186335		0.5 µg/mL
NC[C@H]1O[C@H](O[C@H]2[C@H](O)[C@@H](O[C@H]3O[C@H](CO)[C@@H](O)[C@H](N)[C@H]3O)[C@H](N)C[C@@H]2N)[C@H](O)[C@@H](O)[C@@H]1O	broth microdilution	ATCC 29213		3.43 µM
CN[C@H](CC(C)C)C(=O)N[C@H]1C(=O)N[C@@H](CC(N)=O)C(=O)N[C@H]2C(=O)N[C@H]3C(=O)N[C@H](C(=O)N[C@H](C(=O)O)c4cc(O)cc(O)c4-c4cc3ccc4O)[C@H](O)c3ccc(c(Cl)c3)Oc3cc2cc(c3O[C@@H]2O[C@H](CO)[C@@H](O)[C@H](O)[C@H]2O[C@H]2C[C@](C)(N)[C@H](O)[C@H](C)O2)Oc2ccc(cc2Cl)[C@H]1O	broth microdilution	MRSA ATCC 33591, TGN medium		8 µg/mL
CC[C@H](C)[C@H](NC(=O)[C@H](CCCCN)NC(=O)[C@H](CCC(=O)O)NC(=O)[C@H](CCCCN)NC(=O)[C@H](CO)NC(=O)[C@H](CCCCN)NC(=O)[C@H](CCCNC(=N)N)NC(=O)[C@H](Cc1ccccc1)NC(=O)[C@H](Cc1ccccc1)NC(=O)[C@H](CC(=O)O)NC(=O)CNC(=O)[C@H](CC(C)C)NC(=O)[C@@H](N)CC(C)C)C(=O)NCC(=O)N[C@@H](CCCCN)C(=O)N[C@@H](CCC(=O)O)C(=O)N[C@@H](Cc1ccccc1)C(=O)N[C@@H](CCCCN)C(=O)N[C@@H](CCCNC(=N)N)C(=O)N[C@H](C(=O)N[C@H](C(=O)N[C@@H](CCC(N)=O)C(=O)N[C@@H](CCCNC(=N)N)C(=O)N[C@H](C(=O)N[C@@H](CCCCN)C(=O)N[C@@H](CC(=O)O)C(=O)N[C@@H](Cc1ccccc1)C(=O)N[C@@H](CC(C)C)C(=O)N[C@@H](CCCNC(=N)N)C(=O)N[C@@H](CC(N)=O)C(=O)N[C@@H](CC(C)C)C(=O)N[C@H](C(=O)N1CCC[C@H]1C(=O)N[C@@H](CCCNC(=N)N)C(=O)N[C@H](C(=O)N[C@@H](CCC(=O)O)C(=O)N[C@@H](CO)C(=O)O)[C@@H](C)O)C(C)C)[C@@H](C)CC)C(C)C)[C@@H](C)CC		CMCC 26003	highest concentration 50 µM	16.7 µM
CNC(C)C1CCC(N)C(OC2C(N)CC(N)C(OC3OCC(C)(O)C(NC)C3O)C2O)O1 (stereo not drawn)		clinical isolate S.A11, RPMI with FBS	24 h, 37 °C	2.5 µM
NC[C@H]1O[C@H](O[C@H]2[C@H](O)[C@@H](O[C@H]3O[C@H](CO)[C@@H](O)[C@H](N)[C@H]3O)[C@H](N)C[C@@H]2N)[C@H](N)C[C@@H]1O		138		12.5 µM
O=[N+]([O-])c1cnc2ccc(Cl)cc2c1O				> 128 µg/mL
CCn1cc(C(=O)O)c(=O)c2cc(F)c(N3CCNCC3)cc21	broth microdilution	MRSA NCTC 12493		2 µM
CCn1cc(C(=O)O)c(=O)c2cc(F)c(N3CCNCC3)cc21	broth microdilution	ATCC 43300	18 h	1 µg/mL
CN(C)[C@@H]1C(O)=C(C(N)=O)C(=O)[C@@]2(O)C(O)=C3C(=O)c4c(O)c(N)nc(Cl)c4C[C@H]3C[C@@H]12	broth microdilution CLSI	ATCC 29213		0.063 µg/mL
Oc1c(Br)cc(Br)c2nc3c(F)cccc3nc12	broth microdilution	25923		0.3 µM
C[C@@H](O)[C@H]1C(=O)N2C(C(=O)O)=C(S[C@@H]3CN[C@H](C(=O)N(C)C)C3)[C@H](C)[C@H]12	broth microdilution	ATCC 43300 MRSA		0.5 µg/mL
C/C=C(\C)c1cc(O)c(C)c(OC(=O)c2c(C)cc(O)c(Cl)c2O)c1	broth microdilution	718306		16 µg/mL
Cc1[nH]c(C(=O)Nc2ccc(C(=O)NCc3n[nH]c(=O)o3)cc2N2CCN(C(=O)OC(C)(C)C)CC2)c(Cl)c1Cl	broth microdilution	ATCC 29213		1 µg/mL
CC[C@H]1OC(=O)[C@H](C)[C@@H](O[C@H]2C[C@@](C)(OC)[C@@H](O)[C@H](C)O2)[C@H](C)[C@@H](O[C@@H]2O[C@H](C)C[C@H](N(C)C)[C@H]2O)[C@](C)(O)C[C@@H](C)C(=O)[C@H](C)[C@@H](O)[C@]1(C)O		MRSA 2		18.8 µM
CC[C@H]1OC(=O)[C@H](C)[C@@H](O[C@H]2C[C@@](C)(OC)[C@@H](O)[C@H](C)O2)[C@H](C)[C@@H](O[C@@H]2O[C@H](C)C[C@H](N(C)C)[C@H]2O)[C@](C)(O)C[C@@H](C)C(=O)[C@H](C)[C@@H](O)[C@]1(C)O		147 MRSA clinical isolate		37.5 µM
CNC(=O)c1cc(Oc2ccc(NC(=O)Nc3ccc(Cl)c(C(F)(F)F)c3)cc2)ccn1		clinical isolate		3 to 10 µM

Compound	assay	test system	conditions	MIC
CN[C@H](CC(C)C)C(=O)N[C@H]1C(=O)N[C@@H](CC(N)=O)C(=O)N[C@H]2C(=O)N[C@H]3C(=O)N[C@H](C(=O)N[C@H](C(=O)O)c4cc(O)cc(O)c4-c4cc3ccc4O)[C@H](O)c3ccc(c(Cl)c3)Oc3cc2cc(c3O[C@@H]2O[C@H](CO)[C@@H](O)[C@H](O)[C@H]2O[C@H]2C[C@](C)(N)[C@H](O)[C@H](C)O2)Oc2ccc(cc2Cl)[C@H]1O	broth microdilution	MRSA clinical isolate, Mueller-Hinton broth	20 h, 37 °C	< 0.5 µg/mL
CN[C@H](CC(C)C)C(=O)N[C@H]1C(=O)N[C@@H](CC(N)=O)C(=O)N[C@H]2C(=O)N[C@H]3C(=O)N[C@H](C(=O)N[C@H](C(=O)O)c4cc(O)cc(O)c4-c4cc3ccc4O)[C@H](O)c3ccc(c(Cl)c3)Oc3cc2cc(c3O[C@@H]2O[C@H](CO)[C@@H](O)[C@H](O)[C@H]2O[C@H]2C[C@](C)(N)[C@H](O)[C@H](C)O2)Oc2ccc(cc2Cl)[C@H]1O	broth microdilution	MRSA USA300, cation-adjusted Mueller-Hinton broth	20 to 24 h, 37 °C, 0.002% polysorbate 80	0.25 µg/mL
NC[C@@H]1O[C@H](O[C@H]2[C@@H](O)[C@H](O[C@@H]3[C@@H](O)[C@H](N)C[C@H](N)[C@H]3O[C@H]3O[C@H](CN)[C@@H](O)[C@H](O)[C@H]3N)O[C@@H]2CO)[C@H](N)[C@@H](O)[C@@H]1O		HG003 wild type		20 µg/mL
CN(C)[C@@H]1C(O)=C(C(N)=O)C(=O)[C@@]2(O)C(O)=C3C(=O)c4c(O)cccc4[C@@](C)(O)[C@H]3C[C@@H]12		147 MRSA clinical isolate		0.1 µM
[H]/N=C(/N)N[C@H]1[C@H](O)[C@@H](O)[C@H](O[C@@H]2O[C@@H](C)[C@](O)(C=O)[C@H]2O[C@@H]2O[C@@H](CO)[C@H](O)[C@@H](O)[C@@H]2NC)[C@@H](N/C(N)=N\[H])[C@@H]1O		CVCC546	alone	1 µg/mL
COc1cccc(OC)c1C(=O)N[C@@H]1C(=O)N2[C@@H]1SC(C)(C)[C@@H]2C(=O)O	broth microdilution	BNCC 186335		0.25 µg/mL
CC[C@@H](C)[C@H]1O[C@@H](c2c(O)c(-c3ccccc3)cn(O)c2=O)[C@H](C)C[C@@H]1C		ATCC 33591, MRSA		> 20 µg/mL
Cc1cc(C)c2c(=O)cc(C(=O)Nc3nc4ccc(F)cc4s3)oc2c1				> 128 µg/mL
C[C@H](N)C(=O)N[C@H](C(=O)N[C@@H](CS)C(=O)N[C@@H](Cc1ccc(O)cc1)C(=O)N[C@@H](CS)C(=O)N[C@@H](CCCNC(=N)N)C(=O)N[C@H](C(=O)NCC(=O)N[C@@H](CCCNC(=N)N)C(=O)O)[C@@H](C)O)[C@@H](C)O	broth turbidity	USA300		50 µM
CN(C)[C@@H]1C(O)=C(C(N)=O)C(=O)[C@@]2(O)C(O)=C3C(=O)c4c(O)cccc4[C@@](C)(O)[C@H]3C[C@@H]12		MRSA 1		≤ 0.1 µM
Cc1nc(O)n2ncc(Br)c2n1				> 128 µg/mL
CO/N=C(\C(=O)N[C@@H]1C(=O)N2C(C(=O)O)=C(COC(C)=O)CS[C@H]12)c1csc(N)n1	broth microdilution	ATCC 43300	18 h	4 µg/mL
CN[C@H](CC(C)C)C(=O)N[C@H]1C(=O)N[C@@H](CC(N)=O)C(=O)N[C@H]2C(=O)N[C@H]3C(=O)N[C@H](C(=O)N[C@H](C(=O)O)c4cc(O)cc(O)c4-c4cc3ccc4O)[C@H](O)c3ccc(c(Cl)c3)Oc3cc2cc(c3O[C@@H]2O[C@H](CO)[C@@H](O)[C@H](O)[C@H]2O[C@H]2C[C@](C)(N)[C@H](O)[C@H](C)O2)Oc2ccc(cc2Cl)[C@H]1O		ATCC 29213	1 strain	1 µg/mL
CN[C@H](CC(C)C)C(=O)N[C@H]1C(=O)N[C@@H](CC(N)=O)C(=O)N[C@H]2C(=O)N[C@H]3C(=O)N[C@H](C(=O)N[C@H](C(=O)O)c4cc(O)cc(O)c4-c4cc3ccc4O)[C@H](O)c3ccc(c(Cl)c3)Oc3cc2cc(c3O[C@@H]2O[C@H](CO)[C@@H](O)[C@H](O)[C@H]2O[C@H]2C[C@](C)(N)[C@H](O)[C@H](C)O2)Oc2ccc(cc2Cl)[C@H]1O	broth microdilution	ATCC 29213, LB medium	no added Zn2+	1 µg/mL
CN(C)c1ccc(O)c2c1C[C@H]1C[C@H]3[C@H](N(C)C)C(O)=C(C(N)=O)C(=O)[C@@]3(O)C(O)=C1C2=O	broth microdilution CLSI	ATCC 29213		0.063 µg/mL
COc1ccc(-c2csc(NC(=O)c3ccc(C(=O)Nc4nc(-c5ccc(OC)c(OC)c5)cs4)s3)n2)cc1OC				> 32 µg/mL
CN(C)c1ccc2nc3ccc(=[N+](C)C)cc-3sc2c1		ATCC 43300, resistant	18 h, 37 °C, dark	128 µM
Cl.Oc1cccc2c1[nH]c1c(C3=CC4(O)CC/C=C\CCCCN5CCC3C3(CC6/C=C\CCCCN6C43)C5)nccc12 (single isomer, unassigned; (+))	growth	ATCC 43300 methicillin-resistant		5 µg/mL
CN[C@H](CC(C)C)C(=O)N[C@H]1C(=O)N[C@@H](CC(N)=O)C(=O)N[C@H]2C(=O)N[C@H]3C(=O)N[C@H](C(=O)N[C@H](C(=O)O)c4cc(O)cc(O)c4-c4cc3ccc4O)[C@H](O)c3ccc(c(Cl)c3)Oc3cc2cc(c3O[C@@H]2O[C@H](CO)[C@@H](O)[C@H](O)[C@H]2O[C@H]2C[C@](C)(N)[C@H](O)[C@H](C)O2)Oc2ccc(cc2Cl)[C@H]1O		clinical isolate S.A02, RPMI with FBS	24 h, 37 °C	2.5 µM

For quick reference, copied from above:
Compound	assay	test system	conditions	MIC
CCn1cc(C(=O)O)c(=O)c2cc(F)c(N3CCNCC3)cc21	broth microdilution	MRSA NCTC 12493		2 µM
CCn1cc(C(=O)O)c(=O)c2cc(F)c(N3CCNCC3)cc21	broth microdilution	ATCC 43300	18 h	1 µg/mL
CN(C)[C@@H]1C(O)=C(C(N)=O)C(=O)[C@@]2(O)C(O)=C3C(=O)c4c(O)c(N)nc(Cl)c4C[C@H]3C[C@@H]12	broth microdilution CLSI	ATCC 29213		0.063 µg/mL
Oc1c(Br)cc(Br)c2nc3c(F)cccc3nc12	broth microdilution	25923		0.3 µM
C[C@@H](O)[C@H]1C(=O)N2C(C(=O)O)=C(S[C@@H]3CN[C@H](C(=O)N(C)C)C3)[C@H](C)[C@H]12	broth microdilution	ATCC 43300 MRSA		0.5 µg/mL
C/C=C(\C)c1cc(O)c(C)c(OC(=O)c2c(C)cc(O)c(Cl)c2O)c1	broth microdilution	718306		16 µg/mL
